Published values of several laboratories.
A part holds a random share of what one study measured. Substitutions count along the parent as printed.

Set 1 — technique: protein-binding microarray; form: double-stranded DNA, one strand shown; matrix: in vitro; concentration: 2540 nM top; notes: 60-bp whole probe; added: salmon DNA 0.4 mg/ml; baseline: random background probes; reading: higher = stronger binding; constant ends, left off below: GCCTAGCAC … GTCTTGATTCGCTTGACGCTGCTG
Target: Interferon regulatory factor 3, full length, phosphomimetic (IRF3, Homo sapiens, UniProt Q14653, residues 1-427, S386D/S396D/S398D/S402D/T404D/S405D)
Construct (chain): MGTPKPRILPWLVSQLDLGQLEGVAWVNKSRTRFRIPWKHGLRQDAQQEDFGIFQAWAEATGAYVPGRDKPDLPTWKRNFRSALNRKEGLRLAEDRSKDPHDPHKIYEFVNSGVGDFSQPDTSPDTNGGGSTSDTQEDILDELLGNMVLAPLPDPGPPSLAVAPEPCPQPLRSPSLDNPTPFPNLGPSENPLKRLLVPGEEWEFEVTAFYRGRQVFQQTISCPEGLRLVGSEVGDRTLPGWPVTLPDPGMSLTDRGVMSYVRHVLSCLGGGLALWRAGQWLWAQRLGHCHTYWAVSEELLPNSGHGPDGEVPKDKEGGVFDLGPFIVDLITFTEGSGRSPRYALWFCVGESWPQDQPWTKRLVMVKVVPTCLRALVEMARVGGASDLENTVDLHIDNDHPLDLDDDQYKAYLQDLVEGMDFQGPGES
Sequence | fitted relative affinity [z-score]
GACGGTTTCGGTTCCGGGCCGTGCTAG | 9.57
GACGGTATGGACTTTCGGGACGTGCTA | 0.217
TTAGATCTCAGTATCGATCAGTGCTAG | 0.561
TTAGATTCCATTTTCGATTAGTGCTAG | 6.38
TCATCAACCAGTTTTCTTACTGTGCTA | 0.628
TTGGGACTGCTTCTCCTTTAGTGCTAG | -0.413
TTAGATCTCATTCTCGATTAGTGCTAG | 1.82
GACGATTTCAGTATCGCGACGTGCTAG | 2.28
GACGATTTAAGACTGGAGACGTGCTAG | 0.425
GACGGACTGGGGGTTCGGGACGTGCTA | -0.594
TTAGATTTGGGGTTTCGATTAGTGCTA | 1.28
TTAGCTTTCAGTTCCGATTAGTGCTAG | 3.88
GACGATCTGGGGACTGGAGACGTGCTA | -0.454
TTAGGACTGCTTAACCTTTAGTGCTAG | -0.346
TTAGGTCTCGGTCTCGGATAGTGCTAG | 1.15

Set 2 — technique: RNA Bind-n-Seq; form: RNA; matrix: in vitro; concentration: 365 nM; baseline: no-protein control; reading: higher = stronger binding
Target: RNA binding protein fox-1 homolog 2, RRM domain, GST-SBP tag (RBFOX2, Homo sapiens, UniProt O43251-10, residues 100-194)
Notes: natural RNA segment, single round, ends assumed
Constant ends, left off below: GGGAGUUCUACAGUCCGACGAUC … UGGAAUUCUCGGGUGCCAA
Target sequence (chain): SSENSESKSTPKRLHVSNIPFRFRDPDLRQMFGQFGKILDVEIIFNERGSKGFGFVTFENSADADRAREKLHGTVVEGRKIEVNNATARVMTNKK
Sequence | RBNS enrichment (R)
UUCUAAACUUAUAUAAUGACCUGAUUUUCUUUCUUGCAAUUUUUCCCCCUUUUUAAUUGAGAGGAUCGUUCGAAUGAGCCUCUGUGGCCUCUCCUUAGAGGCCUUCACAA | 0.702
AGAUUUUAAAAGUAACUAAAUAUACUUCAGCACUUUUUUGCUUUAAACUAGAUCAUCUUAGACUUGUUUAUACCUUCCAGAUUUGAUUGUUUUACUCCCAAUGACUGCAC | 0.513
GUCUCAGAGAAAACAAAUGAGUUACUCUCUCGGACAAGCUGUAGGUCCUACCUAAAUGUCCAGCAGGACAUUAGACAGUCGUACAGGGUACAGAAUAAUUCUUCGUUGUG | 0.231
UAUGGACCAUCUUCAAACUGCUGGAUCCCCUGUAUAUGUUGAAUGAUGCCUGGUGGUCUUACAGCAUCACUGGCACACUAACGUCGGACUGUGUGAUUGAGCCCAAGAAG | 0.727
CCCUACAUCCCACCCUCCUCUUGACGCGUUUCUGGUGGUUUCGGUUUCUGCGUUGCCCUCCAGAUCCUGAGGUGGGCCGUGAGACGACUUGCUUUAAACUCUGUUCAAUC | 0.313
GGUGCCCCAUCAUUGGCCACCCCAGCCAUAGGUGUGUGCUGUUGGUGGGAAAUGGUCUCCUUCCUCAGCGUUGUGUUUGGGUUACUGGUGAGGCCAGCUCACAGAGUGAC | 0.333
GGGUCAACAGUUCCUUUGCCAGCAGCAUCUCCUAAAUUGUAAGGACUCUGUCCACCGGGGCCCUCCCAGGGCUGUGAGGACGGAAACAGGCAGGGAGUGGAGCUAACAGC | 0.402
AGAUGGCCAUAGGGGACAGCACACUUGAUGGUUGUUGCCGAAGUAUUUUCUAACAGAAACUCUUAGGUGGAAUGUUUCUGAAGGCUUUAAAAAAAAUACAAUAAAGUAAA | 0.542
AGAAAUGUUCAUAAUUUUAAUGGAUAUCCUUUGGUGUGAAUAAUUGAAUACAGAGUUUUUAAAAUAUUUUCACGUAUAUCACUUGCUCUCAUUUGUGGGGAAGAUAAUAG | 0.483
GCCCUCCAUCCACCUGCCUUAACUAAUUGGGGCUGGAGUUGGUCAUUUUUGUACACCCACAGUGGUACCUUUUACAGUCAGGUUUGGAUACUUUGCAGCUCAUCCAAAGA | 0.379
UACUUUCCAGCAGUCAGUCCCUGGUUCCUAGAUGUGUUCUAAGCAAUGCAAAUGUCUAAUUGUCCCCCAGUGGGCAUAGUCAGUGUCGUUUAUAUUGUAGCAGUUACAGC | 0.32
UUUUCAUGUAUUCAUUUGCAGUCUUUGUAUUUAAAAAACAUUUACUGUUAUGUUUGUAUAAUAGAACAGUAAUCAUUUAUUAUAAUCUAGGCAAGUUGUAAAUAAAUUCA | 0.544

Set 3 — technique: DHFR PCA, deep sequencing; matrix: yeast; added: (+)-ABA 4.8 µM; baseline: wild-type fitted maximum; reading: higher = stronger binding
Target: ABI1, truncated, D143A, DHFR fusion (Arabidopsis thaliana)
Notes: methotrexate growth selection, single substitutions
Starting sequence: PYL1, truncated, DHFR fusion (Arabidopsis thaliana); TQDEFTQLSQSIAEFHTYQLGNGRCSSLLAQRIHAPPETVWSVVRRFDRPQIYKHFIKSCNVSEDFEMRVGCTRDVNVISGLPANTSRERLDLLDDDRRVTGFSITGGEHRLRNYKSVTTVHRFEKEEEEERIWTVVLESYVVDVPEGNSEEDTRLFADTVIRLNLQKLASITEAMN; partner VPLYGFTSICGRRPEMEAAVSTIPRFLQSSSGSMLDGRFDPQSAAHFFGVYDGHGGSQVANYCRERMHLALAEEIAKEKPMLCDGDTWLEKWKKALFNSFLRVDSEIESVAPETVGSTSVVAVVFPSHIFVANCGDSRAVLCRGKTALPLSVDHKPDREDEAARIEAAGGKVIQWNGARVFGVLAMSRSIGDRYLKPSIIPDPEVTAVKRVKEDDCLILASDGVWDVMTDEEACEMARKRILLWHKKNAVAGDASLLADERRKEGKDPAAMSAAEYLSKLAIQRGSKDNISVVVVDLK
Variant | relative binding score [%]
D97S | 71
L169S | -1.78
S11G | 45.8
L82D | -7.4
V137H | 2.61
L93R | 59.9
I79D | -2.99
E151Q | 59.5
I172D | -3.72
T119E | -2.47
E14K | 53.7
Q51L | 1.53
I133W | 64

Set 4 — technique: Sort-seq; refers to: YFP reporter; matrix: E. coli; notes: PhoQ-PhoP variant library; added: 10 µM Mg2+; baseline: high Mg2+ state; reading: higher = stronger signaling
Substance: PhoQ, residues 284 288 289 292 302 303 SSYNSA
target | fold induction
PhoP, residues 12 14 15 18 19 SFCSL (Escherichia coli, UniProt P23836) | 30.4
PhoP, residues 12 14 15 18 19 AYFRS (Escherichia coli, UniProt P23836) | 19.8
PhoP, residues 12 14 15 18 19 HHYTI (Escherichia coli, UniProt P23836) | 1.26
